Results collected from several papers.
Numbered parts are unrelated; each lists some results of a single study. Substitutions count along the parent as printed.

Block 1
Target: RNA binding protein fox-1 homolog 2, RRM domain, GST-SBP tag (RBFOX2, Homo sapiens, UniProt O43251-10, residues 100-194)
Technique: RNA Bind-n-Seq
Molecule type: RNA
Matrix: in vitro
Tested at: 365 nM
Setting: natural RNA segment, single round, ends assumed
Reference: no-protein control
Direction: higher = stronger binding
All sequences stand within: GGGAGUUCUACAGUCCGACGAUC … UGGAAUUCUCGGGUGCCAA
Construct (chain): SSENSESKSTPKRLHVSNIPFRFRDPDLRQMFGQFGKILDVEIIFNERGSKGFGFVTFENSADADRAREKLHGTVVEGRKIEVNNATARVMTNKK
Sequence	RBNS enrichment (R)
CAGCCCUCUCCUGCCUCCAUGCCUUGGGUCCCUGAAGAGCUUAGAACCCAAAGCUAGGGCCACCCCUGCACUUAGGCCUUGGCUGAAGAUCUUGAGACUGGUGUUUCCGU	1.55
CUGGGAUGUCACAGUCCAAAAGGAAAGUGCCUUUCUCCAUGGCUGGAGUAUGGAGUUUACCUUUGGAGAAGUUGUAAUGGAGCAUGCCCUGUCCCACCACUCUCAGAGAG	1.02
CUUAGGGCAGAAACACCAUCCUAUCAGGUUUGGUCAGUCCCUUCUUCAUGAAGGGAGUCAUGGGGAAUUCCUGAAAAUUUUCUUCCUUCUGCAGACAGUUGGAUGAGUCC	0.229
AGCUGUGGCUCAACACAUGAGAAGAAGCACGAAGCAGUUAGGCUGUACAUCAGACAGAAGGGUAAUGCGUGCAGUUCCUGCUGCCUGCAGGCAGACGAGGCCUUUGCUUU	0.645
AUCAUGUUGUCUGUGUUGUGUUAUGUGAGAAUUUUCUCCUAAGUCAUGCAGGUAAUGACAAUAUACUGUAAAUACCACAUGUGAGUUUACCUGAAUCUGUGCAUUUUGUG	0.767
AACCUGCACAUGGAGGACACAUCCAAUACCAGUUCUCCACAUUCCAACCUCUCUCUCUCUCUCUCACUGGGUGGAUAAAUUUGUGAGCCAACCAAGAAGGCUCAGCUGUC	0.821
CUGUUCUAAAAACGUAAGUACUCCAUUGUAAUAGGGUGGCAUCUUCAGGUAGUGCACAUAUUGGCAAUAGAGGUCCUGAAUUGUUUUUCUAAGACUGAUCUGAGAGCCAU	0.402
GCAGAGCUCUGCCCUGUAGCUCCCUGCCUCAGUUUAUCUUUGCAAUACAAAGCAAAUCCUUCCCCAGCUAUGUGUUUUAGCCUUUGAGUAGGGGAGUUUCGGUGUACACA	0.488
UCCCACUAAAACUUAGGCUGGGAAUGACAGUUUUCCUUUCCAGUCUCAGUUCAUGAGAACCCAUUUCCCAGAGGUUCGUUUUGAGCCAAUAGCCUAUUUUGAACCAUUUG	0.168
GAAUUUGGGGUAAGAGGAAGUGAGAUCUCCGCUUGCAGGUCAGCCCCUGCCUUGCAGGGCGGGCUGGCUUGACUCAGGCCCUGUGAGAUAGAGGGCCCAGCCCAGCCCCA	0.685
UUGCUUCCAGAGAAUUGGAACGUGUGUGGCCUGGAGCGCAGUAGAAACCAGCCGUUCCCAACCUAUUCCCAUUGACAGUGAUCUUGCAUCCGCCAGCCAUUGCUCUUGGC	2.23
AUUAUAAAAAGGAAAGGGUUAAUAUAUUUUUGGACUCUGUAGGACAAAAGAGAACUGGUUAACCUUGAAGUGACUGUUGUACAGUGGCUGUGCACGUGCUUCAGACUCAU	1.33

Block 2
Organism: Saccharomyces cerevisiae
Read-out: binding
Technique: competitive growth deep sequencing
Molecule type: peptide
Strain: cyclin D2-Cln2 fusion strain
Tested at: concentration not given
Setting: peptide tiling library
Direction: direction not given
Sequence	growth enrichment score
NLEPNAEFDKRTEFIT	0.752
KVRRNLFNQELLSP	-0.691
EHCRVLFLDHVMYTIH	-0.851
ISRLFPPRTPGWHQLQ	-3.07
SPREGHMMDALYAQVK	0.959
VSRNLRSSLKSSLHTL	-2.11
NRLLKLFTRCLTPLVP	-2.67
PPTFLSTGEIHAFLSS	-1.06

Block 3
Target: ABI1, truncated, D143A, DHFR fusion (Arabidopsis thaliana)
Technique: DHFR PCA, deep sequencing
Matrix: yeast
Setting: methotrexate growth selection, single substitutions
With: (+)-ABA 0.032 µM
Reference: wild-type fitted maximum
Direction: higher = stronger binding
Starting sequence: PYL1, truncated, DHFR fusion (Arabidopsis thaliana); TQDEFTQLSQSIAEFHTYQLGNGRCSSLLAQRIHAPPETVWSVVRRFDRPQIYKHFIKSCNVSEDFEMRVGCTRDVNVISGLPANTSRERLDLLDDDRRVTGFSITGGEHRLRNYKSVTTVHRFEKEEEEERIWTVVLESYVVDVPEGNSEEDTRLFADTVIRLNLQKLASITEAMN; partner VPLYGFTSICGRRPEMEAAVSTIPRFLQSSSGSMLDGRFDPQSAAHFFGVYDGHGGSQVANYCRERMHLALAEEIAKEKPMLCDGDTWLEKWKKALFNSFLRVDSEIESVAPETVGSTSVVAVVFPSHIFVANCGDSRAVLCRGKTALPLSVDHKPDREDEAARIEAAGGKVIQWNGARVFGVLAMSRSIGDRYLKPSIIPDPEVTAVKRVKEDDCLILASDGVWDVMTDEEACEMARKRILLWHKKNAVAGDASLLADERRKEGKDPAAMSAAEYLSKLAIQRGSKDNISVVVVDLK
Variant	relative binding score [%]
Q167P	0.328
V161M	67.8
L112A	1.13
K58L	-2.65
R49T	11
V100Y	-1.04
R113E	3.79
N149V	55.8
W41P	-1.78
L112G	-0.23
I105D	-1.91
R74N	0.795
V76I	41.3
N165Y	0.0137
E131Q	49.6
Q51E	9.12
I57P	0.169
L138T	-3.06
D95N	-2.2
V143Q	-4.16
E89N	-1.09
G107W	-2.24
A84V	25.3
C60T	3.51
E125M	28

Block 4
Target: Homeobox protein Hox-C11, full length (HOXC11, Homo sapiens, UniProt O43248, residues 1-304)
Chain of UniProt O43248 (whole entry, looked up): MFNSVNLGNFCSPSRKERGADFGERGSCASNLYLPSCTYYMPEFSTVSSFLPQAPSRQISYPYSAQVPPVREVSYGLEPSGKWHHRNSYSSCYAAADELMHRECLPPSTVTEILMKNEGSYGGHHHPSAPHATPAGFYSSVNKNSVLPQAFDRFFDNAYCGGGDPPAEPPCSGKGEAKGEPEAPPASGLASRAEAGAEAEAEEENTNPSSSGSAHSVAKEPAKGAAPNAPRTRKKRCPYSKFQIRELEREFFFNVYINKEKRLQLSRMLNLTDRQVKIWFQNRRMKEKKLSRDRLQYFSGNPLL
Technique: protein-binding microarray
Molecule type: hairpin DNA
Matrix: in vitro
Tested at: not given
Setting: whole hairpin DNA, median over replicate spots
Reference: not given
Direction: higher = stronger binding
Sequence	median fluorescence [a.u.]
GAGGCCCGGTCGTAAAAGCCTCCTGGCTTTTACGACCGGGCCTCACACTC (5mC at 7 37)	10700
GAGGCCAGGTCGTTAAAGCCTCCTGGCTTTAACGACCTGGCCTCACACTC (5mC at 33)	10600
GAGGCCAGGTCCTAAAAGCCTCCTGGCTTTTAGGACCTGGCCTCACACTC	8190
GAGGCCAGGTCCTTAAAGCCTCCTGGCTTTAAGGACCTGGCCTCACACTC (5mC at 12)	8060
GAGGCCAGGTCGTAAATGCCTCCTGGCATTTACGACCTGGCCTCACACTC	11000
GAGGCCAGGTCGTTATAGCCTCCTGGCTATAACGACCTGGCCTCACACTC	10200
GAGGCCAGGTCGTTACGGCCTCCTGGCCGTAACGACCTGGCCTCACACTC	10600
GAGGCCAGGTCGTAGAAGCCTCCTGGCTTCTACGACCTGGCCTCACACTC (5mC at 30)	10900
GAGGCCAGGTCCGAAAAGCCTCCTGGCTTTTCGGACCTGGCCTCACACTC (5mC at 32)	9070
GAGGCCTGGTCGTTAAAGCCTCCTGGCTTTAACGACCAGGCCTCACACTC	10200
GAGGCCAGGTCGTTACAGCCTCCTGGCTGTAACGACCTGGCCTCACACTC	10900
GAGGCCAGGTCGTTAGAGCCTCCTGGCTCTAACGACCTGGCCTCACACTC (5mC at 29)	11400
GAGGCCAGGTCCGTAAAGCCTCCTGGCTTTACGGACCTGGCCTCACACTC	9460
GAGGCCAGCGCGTTAAAGCCTCCTGGCTTTAACGCGCTGGCCTCACACTC (5mC at 9)	9100
GAGGCCAGGTCGCAAAAGCCTCCTGGCTTTTGCGACCTGGCCTCACACTC	10500

Block 5
Target: UBE2L3 UBC core domain (UniProt P68036)
Chain of UniProt P68036 (whole entry, looked up): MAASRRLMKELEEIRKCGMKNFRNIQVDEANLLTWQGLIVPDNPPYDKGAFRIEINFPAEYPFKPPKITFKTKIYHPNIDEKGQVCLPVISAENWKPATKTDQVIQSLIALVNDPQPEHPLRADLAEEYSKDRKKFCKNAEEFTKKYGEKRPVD
Technique: yeast two-hybrid
Matrix: yeast
Setting: mostly zero background
Reference: not given
Direction: higher = stronger interaction
B1: NHLRC1 RING domain (UniProt Q6VVB1); chain MREAEISLLECKVCFEKFGHRQQRRPRNLSCGHVVCLACVAALAHPRTLALECPFCRRACRGCDTSD
B2: SHPRH RING domain (UniProt Q149N8); chain KTSGGVNPEPCPICARQLGKQWAVLTCGHCFCNECISIIIEQYSVGSHRSSIKCAICRQTTSHKEISY
B3: RNF10 RING domain (UniProt Q8N5U6); chain VRICSHEVPSCPICLYPPTAAKITRCGHIFCWACILHYLSLSEKTWSKCPICYSSVHKKDLKS
B4: TRIM74 RING domain (UniProt Q86UV6); chain SLLELEDWLQCPICLEVFKESLMLQCGHSYCKGCLVSLSYHLDTKVRCPMCWQVVDGSSSLP
B5: RNF17 RING domain (UniProt Q9BXT8); chain SQPWGAAEIQCTRCGRRVSRSSGHHCELQCGHAFCELCLLMTEECTTIICPDCEVATAVNTRQR
B6: UBE4B RING domain (UniProt O95155); chain KNARAEIDYSDAPDEFRDPLMDTLMTDPVRLPSGTIMDRSIILRHLLNSPTDPFNRQTLTESMLEPVPELKEQIQAWMREKQNSDH
B7: RNF7 RING domain (UniProt Q9UBF6); chain AICRVQVMDACLRCQAENKQEDCVVVWGECNHSFHNCCMSLWVKQNNRCPLCQQDWVVQRIGK
B8: CBLL1 RING domain (UniProt Q75N03); chain GEKDDTPVHFCDKCGLPIKIYGRMIPCKHVFCYDCAILHEKKGDKMCPGCSDPVQRIEQCT
B9: RNF11 RING domain (UniProt Q9Y3C5); chain RDGSEKKIRECVICMMDFVYGDPIRFLPCMHIYHLDCIDDWLMRSFTCPSCMEPVDAALLSS
B10: MDM2 RING domain (UniProt Q00987); chain TQDKEESVESSLPLNAIEPCVICQGRPKNGCIVHGKTGHLMACFTCAKKLKKRNKPCPVCRQPIQMIVLTYFP
B11: MARCHF2 RING domain (UniProt Q9P0N8); chain RLLSTVIRALDTPSDGPFCRICHEGANGECLLSPCGCTGTLGAVHKSCLEKWLSSSNTSYCELCHTEFAVEKRPRPLTEWL
Sequence	lacZ reporter activity
B1 (NHLRC1 RING domain)	0
FLSKVEETFQCICCQELVFRPITTVCQHNVCKDCLDRSFRAQVFSCPACRYDLGRSYAMQ (UHRF1 RING domain (UniProt Q96T88))	0
B2 (SHPRH RING domain)	0
B3 (RNF10 RING domain)	0
B4 (TRIM74 RING domain)	0
B5 (RNF17 RING domain)	0
B6 (UBE4B RING domain)	0
AAQLLEEKLTCAICLGLYQDPVTLPCGHNFCGACIRDWWDRCGKACPECREPFPDGAELR (TRIM65 RING domain (UniProt Q6PJ69))	0
B7 (RNF7 RING domain)	0
SNNDLASLFECPVCFDYVLPPILQCQSGHLVCSNCRPKLTCCPTCRGPLGSIRNLA (SIAH1 RING domain (UniProt Q8IUQ4))	0
B8 (CBLL1 RING domain)	0
MEEMEEELKCPVCGSFYREPIILPCSHNLCQACARNILVQTPESESPQSHRAAGSGVSDY (TRIM9 RING domain (UniProt Q9C026))	0
B9 (RNF11 RING domain)	0
EDVLSKDAGECAICLEELQQGDTIARLPCLCIYHKGCIDEWFEVNRSCPEHPSD (ZNRF2 RING domain (UniProt Q8NHG8))	0
B10 (MDM2 RING domain)	0
B11 (MARCHF2 RING domain)	0
